# Assay results of several laboratories.
# Lines come from different studies, so protocols differ. ± gives the spread as reported.
SMILES,test,system,conditions,endpoint,value
CC[C@H](C)C(=O)N1CCC(NC(=O)Nc2ccc(OC(F)(F)F)c(F)c2)CC1,,healthy volunteers,"oral, 2 mg single dose",subjects with trichomoniasis TEAE,16.7%
CCOC(=O)[C@@H]1Cc2c(cc([N+](=O)[O-])cc2[N+](=O)[O-])[C@H](O)[C@]12C(=O)Nc1ccc(Br)cc12,,"BALB/c nude mice, xenograft","ip, 30 mg/kg/day, four daily doses, 1 h",plasma concentration,< 0.1 µM
CC(C)C[C@@H](N)C(=O)NCC(=O)N[C@H](C)C(=O)N[C@H](CO)C(=O)N[C@H](Cc1c[nH]c2ccccc12)C(=O)N[C@H](Cc1c[nH]cn1)C(=O)N[C@H](CCCNC(=N)N)C(=O)N1CCC[C@@H]1C(=O)N[C@H](CC(=O)O)C(=O)N[C@H](CCCCN)C(=O)N[C@H](CS)C(=O)N[C@H](CS)C(=O)N[C@H](CC(C)C)C(=O)NCC(=O)N[C@H](Cc1ccc(O)cc1)C(=O)N[C@H](CCC(N)=O)C(=O)N[C@H](CCCCN)C(=O)N[C@H](CCCNC(=N)N)C(=O)N1CCC[C@@H]1C(=O)N[C@H](CC(C)C)C(=O)N1CCC[C@@H]1C(N)=O,LC-MS/MS,rat plasma extract,"25 ng/mL, 4 h, 8 °C, autosampler storage",measured concentration,21.7 ± 1.1 ng/mL
N#CC1(c2ccc3c(N)ncnn23)OC(COP(=O)(O)OP(=O)(O)OP(=O)(O)O)C(O)C1O (stereo not shown),LC-MS/MS,"male CD-1 mice, liver and kidney","oral, 100 mg/kg of remdesivir",last detectable time,≤ 16 h
[11CH3]n1c(=O)n(CCCO)c(=O)c2c1nc(Oc1cccc(OC(F)(F)F)c1)n2Cc1ccc(Cl)cc1,ex vivo biodistribution,"Sprague Dawley rat, pancreas",5 min post injection,tracer uptake,1.72 ± 0.38 %ID/g
C[C@H]1N=C(c2ccccc2F)c2cc(Br)ccc2-n2cnc(C(=O)OC3O[C@H](C(=O)O)[C@@H](O)[C@H](O)[C@H]3O)c21 (stereo partly shown),LC-MS/MS,"Swiss Webster mouse, female, urine","intravenous, 250 µg parent drug, 0 to 24 h",cumulative excretion,2.5 ± 0.5%
CC[C@H](C)[C@H](NC(=O)CNC(=O)[C@H](CC(C)C)NC(=O)[C@H](Cc1ccccc1)NC(=O)CN)C(=O)N[C@@H](CC(C)C)C(=O)N[C@@H](Cc1ccccc1)C(=O)N[C@@H](Cc1c[nH]cn1)C(=O)NCC(=O)N[C@H](C(=O)N[C@@H](Cc1c[nH]cn1)C(=O)N[C@@H](Cc1c[nH]cn1)C(=O)NCC(=O)N[C@@H](CCCNC(=N)N)C(=O)N[C@@H](CCCCN)C(=O)N[C@@H](CCCCN)C(=O)N[C@@H](C)C(=O)N[C@@H](CC(C)C)C(=O)N[C@@H](Cc1c[nH]cn1)C(=O)N[C@@H](CCSC)C(=O)N[C@@H](CC(N)=O)C(=O)N[C@@H](CO)C(=O)N[C@@H](CCC(=O)O)C(=O)N[C@@H](CCCNC(=N)N)C(=O)N[C@@H](CCCNC(=N)N)C(=O)N[C@@H](CO)C(=O)O)C(C)C,,zebrafish embryos,"1 h, 4, 28, 52 hpf",acute toxic concentration,25 µg/mL
CC(C)[C@H](NC(=O)CNC(=O)[C@H](CCC(N)=O)NC(=O)[C@H](C)N)C(=O)O,,human,30 mg/kg single dose,discontinuation due to adverse events,0%
O=C(CN1CCN(c2cc3c(cc2F)c(=O)c(C(=O)O)cn3C2CC2)CC1)Nc1ccc(Cl)cc1,,"BALB/c mice, female, plasma","iv, 3.75 mg/kg",clearance,0.00416 mL/min
N=C(N)NCCC[C@@H]1NC(=O)[C@H](CCCNC(=N)N)NC(=O)[C@H](CCCNC(=N)N)NC(=O)[C@H](CCCNC(=N)N)NC(=O)[C@H](Cc2c[nH]c3ccccc23)NC(=O)[C@H](CCCNC(=N)N)NC(=O)[C@H](CCCNC(=N)N)NC(=O)[C@@H](N)CCCn2cc(nn2)C[C@@H](C(N)=O)NC1=O,,zebrafish embryos,"25 µg/mL, 72 h",hatching rate,8%

# A few entries again:
SMILES,test,system,conditions,endpoint,value
C[C@H]1N=C(c2ccccc2F)c2cc(Br)ccc2-n2cnc(C(=O)OC3O[C@H](C(=O)O)[C@@H](O)[C@H](O)[C@H]3O)c21 (stereo partly shown),LC-MS/MS,"Swiss Webster mouse, female, urine","intravenous, 250 µg parent drug, 0 to 24 h",cumulative excretion,2.5 ± 0.5%
